Published values gathered from unrelated publications.
Each numbered part is a random draw from the data of one study; scales do not carry over between parts.

Set 1
Target: RING finger protein unkempt homolog, zinc fingers 1-6, GST-SBP tag (UNK, Homo sapiens, UniProt Q9C0B0, residues 30-357)
UniProt Q9C0B0, sequence (30-357, looked up): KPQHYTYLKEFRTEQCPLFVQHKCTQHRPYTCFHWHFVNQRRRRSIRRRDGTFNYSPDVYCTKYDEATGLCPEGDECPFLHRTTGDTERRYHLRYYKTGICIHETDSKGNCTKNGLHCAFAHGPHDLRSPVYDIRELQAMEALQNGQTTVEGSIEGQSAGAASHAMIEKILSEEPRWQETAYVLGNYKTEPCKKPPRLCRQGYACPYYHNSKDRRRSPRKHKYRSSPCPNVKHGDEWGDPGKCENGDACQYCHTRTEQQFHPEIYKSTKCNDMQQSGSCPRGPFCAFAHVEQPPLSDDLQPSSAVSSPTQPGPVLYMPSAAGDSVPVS
Technique: RNA Bind-n-Seq
Form: RNA
Sample: in vitro
Tested at: not given
Notes: RNA with constant flanks, human and mouse sites, ends assumed
Relative to: input RNA pool
Direction: higher = stronger binding
Constant ends, left off below: GGGAGUUCUACAGUCCGACGAUC … CAACAGAGGAUUGAGCAUCA
Oligonucleotide	bound/input enrichment
AUGAAGCCAGCCGGUACAGACCCAAGGAUCUUGUCUUUAGCUGCUGAAGUUGCAAAAAGUCCUGAACAAAAUGUUCCUGUUAUAUUAUUGAAGUUAAAAGAAAUAAUAAACAACACCCCU	0.113 ratio
UCCCAUAUGAAAAAAGGAGAGAACACUGGCAUCUGUUGAAAUUUGGAAGUUCUGAAAUUAUAGUAUUUUUAAAAAUUGCACUGAAGUGUAUACACAUAAAGCAGGUCUUUUAUCCAGUGA	4.43 ratio
AGAGAUUUUAUUUGCAAGUUAAUCAAAUAUUGGACAUUUAGAUUUUUUCUACUUUCUGGCUAGUAUAAGUAAUGCUGCUAGAACAUUUAUGUAAUUUUUGUAUGUGGUCAUGGUUUCUUU	6.29 ratio
GGCAUGCCGCUUGCUUGAGCCAAUGCUAUGCUUGCUAGACUGUGUCUGACUGACUUUGGGCCAUCAAAUGUAUGCACAGCCAUGGCUUGGAAGUGUCCGUAGAUGGGAAUGCAAUAAAGG	0.214 ratio
UCCGAGGGCAGCGGUGGGAGCACACCCGGCUGGCACACGAGGGAGGAGCAGCCGCCGUCGGUAGCUGAGGGCUACGCCUCGCAGGACGUGUUCAGCGCCACCGAGACCAGCCUGUGGUAC	0.178 ratio
ACUUGUUCACUGGAUUGUCUGGGAUGACUUGGGCUCAUAUCCACAAUACUUGGUAUAAGGUAGUAGAUUGUUGGGGGUGGGGAGGGAGGGAUCUAGGAUACAGGGCAGGGAUAAAUACAG	25.3 ratio
GACAUGGAAACAUAUGAGAGACUGAGAGAAAAACAUGGAGAAGAGUUUUUCCCAACAUCCAAUAGUCUUCUUCAUGGAACACAUGUGCCUUCCACAGAGGAAAUUGACAGGAUGGUCAUA	0.197 ratio
AAGGAUGCUUUCGAUAAAGGUUCACUUUUUGGAGGCUCUGUAAAACUGGCUCUUGCAAGCUUAGGAUAUGAAAAGAGCUGUGUGUUGUUCAAUUGUGCAGCCUUAGCUAGCCAAAUUGCA	0.627 ratio
AAUCUUUUAAAAUCAACAUGGGGUAGGGAAAGAGAAAUCAUAGGUACCCAGGCAAAUCCCUGAGCCAGUAAGGCCCUGUAGAGUAAUAAUGAAUUGUUACCUUAAAAUCUUAUCACUAAC	0.797 ratio
GAGGACAAGAAAGAGCAGGAGUCUGAUGAGGAAGAGGAAGAAGAGGAAGAGGACGAGCCUUCAGGAGCCACCACAAGAUCCACCACCAGAUCAGAGGCUCAGAGAUCAAAGACACAGCUC	0.473 ratio
GCCUCCCUGGGUCUAGAGAAGUUGGUAAGCCCUCCAGCCUCAGCCGCUGCUUCCAGCCCUAGCUCUUCUCCAUCUCCACAGCCCGUUUCAGAGCUUGACUUGUCCUCAGAGCCACAGCAG	0.366 ratio

Set 2
Target: Sal-like protein 4, full length isoform B (SALL4, Homo sapiens, UniProt Q9UJQ4-2, residues 1-616)
Technique: universal PBM
Form: double-stranded DNA, one strand shown
Sample: in vitro
Tested at: not given
Notes: 8-mer, flanks averaged, mean of replicates
Direction: higher = stronger binding
Oligonucleotide	E-score
GACACTGA	-0.0783
CGGGACAA	-0.114
CTGAACGC	-0.115
ACTTTAAT	0.234
AGTCACCC	-0.108
CGAAAACC	-0.03
CTACGCTC	-0.147
GATCCTAC	-0.0973
ACCTGCCA	-0.0557
CGTTTAGA	-0.0048
CCAATCAA	-0.0104
GAGCTGAC	-0.246
ACGCGGAG	-0.223
TGTAGCAA	0.146
AGTCCTAA	0.0322
GCGGGCAC	-0.184
AAAGGTCA	-0.0821
ATCCCTGA	-0.111

Set 3
Target: RNA binding protein fox-1 homolog 2, RRM domain, GST-SBP tag (RBFOX2, Homo sapiens, UniProt O43251-10, residues 100-194)
Technique: RNA Bind-n-Seq
Form: RNA
Sample: in vitro
Tested at: 365 nM
Notes: natural RNA segment, single round, ends assumed
Relative to: no-protein control
Direction: higher = stronger binding
Constant ends, left off below: GGGAGUUCUACAGUCCGACGAUC … UGGAAUUCUCGGGUGCCAA
Target sequence (chain): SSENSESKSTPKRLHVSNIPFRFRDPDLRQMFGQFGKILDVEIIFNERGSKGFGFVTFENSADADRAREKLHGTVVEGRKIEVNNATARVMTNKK
Oligonucleotide	RBNS enrichment (R)
AGGAAAGAAAGGAUAUAGGAAGAGAGGGAAGCAGAAGGCAGGCAUUUUUCUAUUUUCCCCACAAAUUAUUUCAAAAAAAAUCUGUAUUUUCUGGGAUAUGUCAUUGGCAA	0.572
GCAUUUUCUGGAUGCAAAGGCACUAGCCCAUUUGAAAAUUAAUAUUCCGUGCCUCUGGGCCAAGAGGUCAGCUUUCUGCACGAGGAGAAAAACAGUAACUGCUGUUUGUU	8.57
CCCAACCCUUUCUGAUAUUGGCUAAGACCUCAGUAUCUCCCAGUAGCACUUCUUCUGGAUUUGAAUUCAAAUGUCAUUCUUAACAUUUCUGUUGAUGCUUCUUUGAAAAU	0.646
UUUCUUUGAGUGACCGUCUGUGCAGGCCCUGUAGUCCGCCACAGGGCUCUGAGCUGCACUGGCCCCGGUGCUGGCAUCUGGUGGAGCGGACCCACUCCCCUCACAUUCCA	0.184
UAAUAUCAAAAGAAAUUUGAUAUUUUUGUAAGAAUUUCCUGAGUACAAUGCUUUAUUGAAAAGCUUCAAAGUUCAUUAAGCUGAUGCAGUGCUUAGAGAGAGCAAUGUCC	0.639
AAUUGGCUUUUGAAUCAAAGAAUAGGGAGACAAUCUAAAAAAUAUCUUAGGUUGGAGAUGACAGAAAUAUGAUUGAUUUGAAGUGGAAAAAGAAAUUCUGUUAAUGUUAA	0.827
ACUCAAAACACCUGUAUUUAAACCUUAAUAUGAAAAUCAUGCAAUUAAUAGUUACACAAGAUGUUUUCAUUACAAAAUAUGUACCUAUCUAUUGAUGGACUCUACAUCCU	0.421
UCAUUCGAUUGCUAUUUGAGACUUUUAAAUUAAGGUAAAGGCUGCUGGUGUUGGUACCUGUGGAUUUUUCUAUACUGAUGUUUUCGUUUUGCCAAUAUAAUGAGUAUUAC	0.701
AGUAAGGUUUCAAGGGAAUAUUAACUUGGUAUCAGGGCUACUUUUUUUUUUUUUUUUUUACUUGCAUGUCAUCCUUAAUGUCUAACAUGAAAAAUCAGCAAAGAGUAUGG	2.83
AAAGUUAUUUGUGUUCAACUGACAUUUAACGCUCUCUCCCCAACUUCCUCCCGGCCCUGUGGGCCAGGGAGGGGCGUUGGAAACAGCACUUUAUAUUUAUAUAGAACAUU	0.346
GGUGUCGUGUUCUAUGAUAAUGAAAGCAUCAGGAAAGCUUUUGUACUUAGUGGUUUUCUCUAUUUUGAAAUUUUUUGAUCAAAAACUGAUUAGUGAAUAUAGUUUGGAGU	1.29
UUAUUUGUACUAAGAAGUAACUUGACCCAAAACACCUUUUAUGUUUGCUUAGGGUAUAUUUUUUCAGUGUCUGAAAGUCAAAGGUAUUCCUGUCACAACUGUAAACAAAC	0.417

Set 4
Target: Prothrombin, mature alpha-thrombin (F2, Homo sapiens, UniProt P00734)
Technique: aptamer microarray, sandwich
Form: DNA with 2'F-ANA
Sample: in vitro
Tested at: 200 nM
Notes: whole 15-mer aptamer, many near background
Together with: Cy3 exosite-II aptamer, 400 nM
Direction: higher = stronger binding
Oligonucleotide: GGTTGGTGTGGTTGG
Modification	mean fluorescence intensity [a.u.]
2'F-ANA at 1 2 6 7 10 11 12 14 15	52.3
2'F-ANA at 2 4 5 6 8 10 11 13 14	52.8
2'F-ANA at 2 4 8 11 12 13 14 15	110
2'F-ANA at 2 4 6 8 9 13	158
2'F-ANA at 3 4 6 7 8 11 14 15	268
2'F-ANA at 4 5 7 8 9 11 14 15	43.7
2'F-ANA at 1 3 7 8 11 14 15	104
2'F-ANA at 1 3 4 5 7 8 9 13 14 15	45.2
2'F-ANA at 1 2 4 6 7 9 10 12 14	46.9
2'F-ANA at 3 5 6 7 8 11 13 14	63.9
2'F-ANA at 2 4 5 7 9 10 11 14	50.5
2'F-ANA at 1 2 3 4 10 13 15	59.5
2'F-ANA at 1 2 3 4 5 7 8 10 12 15	51.3
2'F-ANA at 1 2 4 5 7 8 9 10 11 13 15	87.4
2'F-ANA at 1 3 7 8 9 10 14 15	61.5
2'F-ANA at 1 5 6 7 8 9 10 11 12 15	49.8
2'F-ANA at 2 3 6 11 12 13 14 15	348
2'F-ANA at 3 7 8 9 10 12	669
2'F-ANA at 3 4 6 10 11 14	183
2'F-ANA at 1 3 9 10 11 15	77
2'F-ANA at 1 3 4 7 10 12	86.8
2'F-ANA at 2 3 8 9 10 11 12 15	372
2'F-ANA at 5 7 8 9 10 13 14	48.4
2'F-ANA at 1 2 3 5 7 8 9 10 12	108
2'F-ANA at 2 4 5 6 8 9 11 13 15	52

For quick reference, copied from above (set 4):
Modification	mean fluorescence intensity [a.u.]
2'F-ANA at 4 5 7 8 9 11 14 15	43.7
2'F-ANA at 3 4 6 7 8 11 14 15	268
2'F-ANA at 1 3 4 5 7 8 9 13 14 15	45.2
2'F-ANA at 2 4 5 6 8 9 11 13 15	52
2'F-ANA at 3 5 6 7 8 11 13 14	63.9
2'F-ANA at 1 2 4 6 7 9 10 12 14	46.9
2'F-ANA at 1 3 7 8 9 10 14 15	61.5
